Measured values from different studies.
Each numbered part is a random draw from the data of one study; scales do not carry over between parts.

Sample 1
Target: Histone acetyltransferase KAT6A, both winged helices, GST fusion (KAT6A, Homo sapiens, UniProt Q92794, residues 1-181)
Technique: protein binding microarray
Molecule type: double-stranded DNA, one strand shown
Medium: in vitro
Concentration: not given
Notes: 8-mer, flanks averaged, mean of 2 arrays, mostly near background
Baseline: not given
Reading: higher = stronger binding
Construct (chain): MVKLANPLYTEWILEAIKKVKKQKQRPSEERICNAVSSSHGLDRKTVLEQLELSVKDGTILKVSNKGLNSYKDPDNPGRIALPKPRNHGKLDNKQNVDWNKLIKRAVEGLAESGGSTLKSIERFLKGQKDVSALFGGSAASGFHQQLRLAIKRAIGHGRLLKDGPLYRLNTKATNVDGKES
Oligonucleotide | E-score
GCTAGAAC | 0.0378
CGTTACAA | 0.0428
ACCGGTTA | 0.283
CTTCAATA | -0.207
CCTGCTTA | -0.102
ATAGCTGC | -0.129
TGGTAACA | -0.0816
AATTCCAG | -0.148
CCGGTTGC | 0.24
AAGACTCG | 0.0375
GACAGCAC | 0.00056
ATGTGTAA | -0.0848
CCCTACAC | -0.13
AGGTGAGA | -0.0574
AAGCTTAA | -0.0224
ACCTCACG | -0.0167
AATCGCGA | 0.155
ACCTCATG | -0.178
GTGTACGA | 0.199
CTCTAACA | -0.0693

Sample 2
Target: Centromere-binding protein 1, full length, His-tagged (CBF1, Saccharomyces cerevisiae, UniProt P17106, residues 1-351)
UniProt P17106, sequence (whole entry, looked up): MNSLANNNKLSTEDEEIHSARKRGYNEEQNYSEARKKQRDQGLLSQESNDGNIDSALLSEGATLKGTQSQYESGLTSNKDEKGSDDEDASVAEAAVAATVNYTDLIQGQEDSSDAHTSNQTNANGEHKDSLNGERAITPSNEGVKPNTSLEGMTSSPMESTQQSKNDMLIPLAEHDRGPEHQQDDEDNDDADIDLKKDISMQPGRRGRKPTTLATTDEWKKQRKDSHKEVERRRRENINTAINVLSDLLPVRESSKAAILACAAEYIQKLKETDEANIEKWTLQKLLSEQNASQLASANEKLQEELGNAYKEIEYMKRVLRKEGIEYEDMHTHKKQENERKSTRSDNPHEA
Technique: competition protein-binding microarray
Molecule type: double-stranded DNA, one strand shown
Medium: in vitro
Concentration: 2 µM
Notes: whole 60-bp probe, lowest competitor level
With: Pho4 competitor, 0.05 µM
Reading: higher = stronger binding
Constant ends, left off below: … GTCTTGATTCGCTTGACGCTGCTG
Oligonucleotide | fluorescence intensity
CAGTTTTCCGCAAAGCACGTTTAACTGGGCAGGGAT | 82.3 a.u.
CGTCCTAGCGATTGACTAGTGGGTGCCATGAGGAAG | 59.6 a.u.
AATAATGCTGTAAGCCTCGTGACGGCATTTCATTAG | 487 a.u.
TGCGCAACAACTTGAATGGTGGGTGTATGTCTAGAA | 57.2 a.u.
CGGGGTTAAGTTTGTCACGTAACTTGCTTGCAGCAG | 92.6 a.u.
CTTTCCCGATCTTGTCACCTGACTTTAGCACATTTG | 1920 a.u.
TATTTTTCTGACGGCCACGTGAGATTCCTGGTTCGA | 898 a.u.
TCGTTCCAGCCGTTCCACGTTTTTGTTATCTAAGCA | 96.9 a.u.
CTAACGAAGGTTTGAATTGTGGGTGACAAGCCAAGT | 75.6 a.u.
GTTAATTAATCAAGCAACGTGCGGAGTTTTATCACA | 167 a.u.
CGTCCTAGTGATTGTCACTGTACTTCCATGAGGAAG | 94.6 a.u.
CATTCGAGTCTATTGTGCGTGTTGGCTTAGATTCTT | 66.9 a.u.
CTAACGAAGGTTTGTAAGGTGGGTGACAAGCCAAGT | 72.4 a.u.
CTTCTGTAAATTTGGGCCGTGGGTGGACGCGCCCCG | 92.9 a.u.
TTACTTCAAAATCACCACGTGTTGAAGAGACTTCAA | 1700 a.u.
ATACACATAGAAGGACACGTGGAACTAACAGTCATT | 831 a.u.
ACCATATTGATTTCGCATGTGTCTCTGGTTCATCGG | 98.6 a.u.
GCCAACAAGTGAACACACGTGAAAATGTTTTCAGTA | 646 a.u.
CGTCCTAGCGATTGAACTGTGGGTGCCATGAGGAAG | 70.9 a.u.
CTAACGAAGGTTTGTTCAGTGGGTGACAAGCCAAGT | 69.9 a.u.
AAATTACTAAGTTGGATGGTGGGTGACGCCGTATGA | 65.1 a.u.

Sample 3
Target: PABPC1L2, full length, GST fusion (mouse, UniProt A0ABA7IW68)
Technique: RNAcompete
Molecule type: RNA
Medium: in vitro
Concentration: 20 nM
Notes: 7-mer, probes averaged, single round
Baseline: mean of 7-mers
Reading: higher = stronger binding
Residues (chain): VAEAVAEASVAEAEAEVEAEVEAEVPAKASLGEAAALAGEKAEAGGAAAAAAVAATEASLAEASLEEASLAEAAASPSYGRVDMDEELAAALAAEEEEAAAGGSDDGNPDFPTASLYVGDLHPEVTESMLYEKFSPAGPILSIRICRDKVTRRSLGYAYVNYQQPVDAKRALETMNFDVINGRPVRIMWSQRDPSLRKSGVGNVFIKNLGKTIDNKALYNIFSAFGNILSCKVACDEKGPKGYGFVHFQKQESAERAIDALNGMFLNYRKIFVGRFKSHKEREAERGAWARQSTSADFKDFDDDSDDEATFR
Oligonucleotide | 7-mer Z-score
CACGUGU | -0.345
GCCCGGA | -0.0264
AGAUCCA | -0.0863
AUCGGAC | 0.111
UUCCCUC | -0.472
CUGUUCU | -0.351
UGCGGAG | 0.109
GCUACUC | -0.217
GUACACC | -0.209
UGUUGUA | -0.345
CAGCAAU | -0.146
UUCCGAC | -0.168
CCAUAAA | 2.72
UGCGGAA | 0.171
AGACAAG | 0.189
CAAUUCU | -0.132
UAAGGCC | -0.119
GGUAACU | -0.146
CUAGUCA | -0.411
GCACCGG | -0.0337
CCUACUG | -0.222
GCUAUAA | 0.296
GAAUUUU | -0.286
GUAUCAA | 0.0986
GAGCAGU | -0.146

Sample 4
Target: Ras GTPase-activating protein-binding protein 1, full length (G3BP1, Homo sapiens, UniProt Q13283)
UniProt Q13283, sequence (whole entry, looked up): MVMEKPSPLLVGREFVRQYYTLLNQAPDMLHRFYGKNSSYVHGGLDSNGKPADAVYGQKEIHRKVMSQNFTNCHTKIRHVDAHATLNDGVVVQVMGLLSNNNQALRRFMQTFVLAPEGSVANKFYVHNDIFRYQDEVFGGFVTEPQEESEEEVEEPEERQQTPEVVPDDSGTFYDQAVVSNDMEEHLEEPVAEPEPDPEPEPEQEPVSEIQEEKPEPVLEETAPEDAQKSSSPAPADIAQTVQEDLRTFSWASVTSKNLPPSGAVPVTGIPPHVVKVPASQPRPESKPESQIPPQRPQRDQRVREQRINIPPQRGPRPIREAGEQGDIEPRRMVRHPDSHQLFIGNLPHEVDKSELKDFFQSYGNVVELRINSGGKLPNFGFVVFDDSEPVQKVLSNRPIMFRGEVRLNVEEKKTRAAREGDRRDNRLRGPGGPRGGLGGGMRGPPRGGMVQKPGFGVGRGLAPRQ
Technique: RNA Bind-n-Seq
Molecule type: RNA
Medium: in vitro
Concentration: 200 nM
Notes: whole 134-nt RNA, ends assumed
With: 150 mM KCl
Baseline: input library
Reading: higher = stronger binding
Constant ends, left off below: GGGAGUUCUACAGUCCGACGAUC … UGGAAUUCUCGGGUGUCAAGG
Oligonucleotide | log2 enrichment
CUGUGCUACACAUCGUAUGUACCGAAUCGGGGCCCCCCGGGCCCCCCGGGGCCCCCCGGGGAAAGUAUUAUGUUACGCCGUUCGGAUCUG | -1.09
AGUCCUGUGCUACACAUCGUAUGUACCGAAUCGGGGAGGGGUUUUUUUGGGGAGGGGAAAGUAUUAUGUUACGCCGUUCGGAUCUGCACU | 0.738
UGGCCCUGGUGGCAUGCGGGGAGGAAGAGGUGGCCUCAUGGAUCGUGGUGGUCCCGGUGGAAUGUUCAGAGGUGGCCGAGGUGGAGACAG | 0.0624
UAACUUUAGAGGAGGAUCUGAUGGAUAUGGCAGUGGACGUGGAUAUGGGGAUGGCUAUAAUGGGUAUGGAGGAGGACCUGGAGGUGGCAA | 0.512
UGUGCUACACAUCGUAUGUACCGAAUCGGGUUUUUUUGGGGUUUUUUUGGGUUUUUUUGGGGAAAGUAUUAUGUUACGCCGUUCGGAUCU | -0.805
AGUCCUGUGCUACACAUCGUAUGUACCGAAUCGGAAAAAGGAAAAAGGGAAAAAGGGGAAAGUAUUAUGUUACGCCGUUCGGAUCUGCAC | -0.726
CCUGUGCUACACAUCGUAUGUACCGAAUCGGGGCCCCCGGGGCCCCCGGGGCCCCCGGGGAAAGUAUUAUGUUACGCCGUUCGGAUCUGC | 0.081
GUGCUACACAUCGUAUGUACCGAAUCGGGGCCCCCCCGGGGCCCCCCCGGGGCCCCCCCGGGGAAAGUAUUAUGUUACGCCGUUCGGAUC | -1.87
UUGGGUUCAAUAUACGGAGAGUGCCCUGUGCCAAAGCCACGAGUUGAUCGUCCAAGAAAAGUUCCUGUGAUACAAGAGGAGAGGGCAAUG | -1.28
UCAAGUCCUGUGCUACACAUCGUAUGUACCGAAUCGGAAAGGAAAAAAAGGUGGAAAGUAUUAUGUUACGCCGUUCGGAUCUGCACUUCC | -0.951

Sample 5
Target: Sal-like protein 4, full length isoform A (SALL4, Homo sapiens, UniProt Q9UJQ4, residues 1-1053)
UniProt Q9UJQ4, sequence (whole entry, looked up): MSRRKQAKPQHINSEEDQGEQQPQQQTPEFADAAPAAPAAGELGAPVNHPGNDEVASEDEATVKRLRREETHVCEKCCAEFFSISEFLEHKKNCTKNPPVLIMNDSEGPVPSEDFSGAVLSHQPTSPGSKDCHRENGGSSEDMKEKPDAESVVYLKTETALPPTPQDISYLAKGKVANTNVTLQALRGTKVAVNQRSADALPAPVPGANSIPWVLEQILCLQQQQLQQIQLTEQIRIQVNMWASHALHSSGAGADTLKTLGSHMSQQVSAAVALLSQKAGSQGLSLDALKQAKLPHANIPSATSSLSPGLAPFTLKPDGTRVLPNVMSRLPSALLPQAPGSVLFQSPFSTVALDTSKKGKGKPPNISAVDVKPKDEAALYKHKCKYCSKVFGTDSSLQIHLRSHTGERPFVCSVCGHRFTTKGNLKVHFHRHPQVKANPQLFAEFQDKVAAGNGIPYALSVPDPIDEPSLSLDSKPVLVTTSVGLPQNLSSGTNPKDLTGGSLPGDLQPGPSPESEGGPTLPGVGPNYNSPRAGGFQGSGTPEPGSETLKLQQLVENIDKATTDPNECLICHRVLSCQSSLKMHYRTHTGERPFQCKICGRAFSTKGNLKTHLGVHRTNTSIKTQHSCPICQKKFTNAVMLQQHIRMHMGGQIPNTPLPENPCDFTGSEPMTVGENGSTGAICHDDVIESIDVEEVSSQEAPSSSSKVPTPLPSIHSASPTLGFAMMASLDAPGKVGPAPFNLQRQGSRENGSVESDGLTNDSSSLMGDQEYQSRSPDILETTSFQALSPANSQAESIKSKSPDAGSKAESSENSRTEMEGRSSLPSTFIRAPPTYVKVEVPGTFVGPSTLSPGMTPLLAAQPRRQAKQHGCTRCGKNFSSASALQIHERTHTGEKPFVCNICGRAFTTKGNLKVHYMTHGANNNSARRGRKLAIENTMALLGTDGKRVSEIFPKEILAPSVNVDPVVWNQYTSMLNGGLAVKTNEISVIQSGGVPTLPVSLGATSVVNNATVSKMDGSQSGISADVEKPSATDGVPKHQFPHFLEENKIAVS
Technique: universal PBM
Molecule type: double-stranded DNA, one strand shown
Medium: in vitro
Concentration: 600 nM
Notes: 8-mer, flanks averaged, mean of replicates
Reading: higher = stronger binding
Oligonucleotide | E-score
CCTGTAAC | 0.00966
AATCGCAA | -0.00149
AAGAAACG | 0.0274
AAGCGGGT | -0.271
GATATTCA | 0.258
ACGCACTC | -0.11
TACCCACA | 0.0121
GAAACGGC | -0.117
ATTTACAC | 0.173
GGCAATGA | 0.0339
GGTTCACA | 0.0349
CTCTCGAA | -0.0567
GGAGTAGA | 0.0298
CCGCGCTC | -0.278
AGTTTACA | 0.148
ATTAGCTG | 0.0754
AGTCCACG | -0.156
AGCCGCGC | -0.36
ACTTACTC | 0.00831
CTGATCAA | -0.0313
CGAAAGGA | 0.154
TGTGCAAA | 0.142
GCGCGCGC | -0.111
AGGGCCCC | -0.353
TCGTGACA | 0.102
